Results of several laboratories.
Every numbered part comes from another study and shows a few of its results, in no order.
Sequence of UniProt Q9UEE5 (whole entry, looked up): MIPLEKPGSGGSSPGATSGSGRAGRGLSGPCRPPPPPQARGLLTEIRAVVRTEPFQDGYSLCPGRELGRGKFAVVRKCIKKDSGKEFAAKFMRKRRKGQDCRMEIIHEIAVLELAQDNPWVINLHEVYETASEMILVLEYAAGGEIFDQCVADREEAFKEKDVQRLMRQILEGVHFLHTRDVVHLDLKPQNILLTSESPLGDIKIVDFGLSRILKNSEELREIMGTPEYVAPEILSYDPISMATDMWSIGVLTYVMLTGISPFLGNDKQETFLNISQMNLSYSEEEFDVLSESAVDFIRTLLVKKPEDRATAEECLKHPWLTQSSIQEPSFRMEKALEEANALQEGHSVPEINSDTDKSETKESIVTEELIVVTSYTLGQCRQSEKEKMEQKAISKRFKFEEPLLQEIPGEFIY

Series 1 — observed: enzyme activity; mode: inhibitor; concentration: 0.5 µM; reference: control
Target: Megakaryocyte-associated tyrosine-protein kinase (MATK, Homo sapiens, UniProt P42679)
Residues (P42679 1-507): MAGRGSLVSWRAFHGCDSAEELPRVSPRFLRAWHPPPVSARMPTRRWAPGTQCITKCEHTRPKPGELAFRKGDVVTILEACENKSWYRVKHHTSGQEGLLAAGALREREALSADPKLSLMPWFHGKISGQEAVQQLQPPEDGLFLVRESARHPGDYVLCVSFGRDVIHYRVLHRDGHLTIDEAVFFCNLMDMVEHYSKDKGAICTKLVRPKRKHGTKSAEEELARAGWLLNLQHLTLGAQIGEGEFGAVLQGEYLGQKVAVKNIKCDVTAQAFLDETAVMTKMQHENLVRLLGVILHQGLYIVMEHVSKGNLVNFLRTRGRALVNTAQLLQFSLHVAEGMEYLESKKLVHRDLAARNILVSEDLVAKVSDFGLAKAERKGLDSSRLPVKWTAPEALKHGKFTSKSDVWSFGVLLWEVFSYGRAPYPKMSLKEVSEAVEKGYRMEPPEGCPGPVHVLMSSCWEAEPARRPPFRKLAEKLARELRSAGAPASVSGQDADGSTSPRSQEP
With `CCN(CC)CCNC(=O)c1c(C)[nH]c(/C=C2\C(=O)Nc3ccc(Cl)cc32)c1C` the remaining activity was 96.8%.
The remaining activity of `Cc1nc2cc3nc(-c4cccs4)cnc3cc2n1C` is reported as 100%.
For `COc1cc2c(cc1OC)-c1[nH]nc(Nc3cccc(F)c3)c1C2`, the remaining activity was 92.1%.
For `CCN(CC)CCNC(=O)c1c(C)[nH]c(/C=C2\C(=O)Nc3ccc(F)cc32)c1C`, the remaining activity was 88.8%.
`COc1cc2ncnc(Nc3cccc(Cl)c3)c2cc1OC` gave a remaining activity of 103%.
`N#Cc1c(NC(=O)c2cccc3ccccc23)sc2c1CCCC2` gave a remaining activity of 92.7%.
With `O=c1cc(-c2cccc3c2Sc2ccccc2S3)oc(N2CCOCC2)c1` the remaining activity was 102%.
For `O=C(NC(NC(=S)Nc1ccc(F)c([N+](=O)[O-])c1)C(Cl)(Cl)Cl)C(c1ccccc1)c1ccccc1` (stereo not drawn), the remaining activity was 96.5%.
For `O=C1C(Cl)=C(N2C(=O)CCC2=O)C(=O)c2ccccc21`, the remaining activity was 88%.
`CCOc1nc(NC(=O)Cc2cc(OC)ccc2OC)cc(N)c1C#N` has a remaining activity of 88.6%.
With `Cc1cn(-c2cc(NC(=O)c3ccc(C)c(Nc4nccc(-c5cccnc5)n4)c3)cc(C(F)(F)F)c2)cn1` the remaining activity was 79.2%.
`CN(C)C[C@H]1CCn2c(c(C3=C(c4cn(C)c5ccccc45)C(=O)NC3=O)c3ccccc32)C1` gave a remaining activity of 95%.
With `N#C/C(=C\c1ccc(O)c(O)c1)C(=O)NCc1ccccc1` the remaining activity was 86.3%.
`c1ccc(-c2cnc(Nc3ccc(OCCN4CCCC4)cc3)s2)cc1` gave a remaining activity of 94.3%.
`CN([C@@H](Cc1ccc(OS(=O)(=O)c2cccc3cnccc23)cc1)C(=O)N1CCN(c2ccccc2)CC1)S(=O)(=O)c1cccc2cnccc12` has a remaining activity of 94.8%.
`C[C@@H]1CCN(C(=O)CC#N)C[C@@H]1N(C)c1ncnc2[nH]ccc12` gave a remaining activity of 66.9%.
The remaining activity of `O=C(Nc1cccc(Nc2nccc(Nc3cccc(C(F)(F)F)c3)n2)c1)C1CC1` is reported as 101%.
The remaining activity of `O=C1c2ccccc2-c2n[nH]c3cccc1c23` is reported as 107%.
`Ic1cccc(CSc2nnc(-c3ccncc3)o2)c1` has a remaining activity of 94.3%.
With `Cn1nc2c3c(cccc31)C(=O)c1ccccc1-2` the remaining activity was 88%.
`Cc1cc2ncc(-c3ccccc3)nc2cc1C` gave a remaining activity of 95.4%.
`Nc1cccc(-c2cc3c(Oc4cccc(O)c4)ncnc3[nH]2)c1` has a remaining activity of 97.8%.
`c1ccc(-c2[nH]ncc2-c2ccnc3ccccc23)nc1` gave a remaining activity of 87.9%.
`COc1cc2ncnc(Nc3ccc(O)c(Br)c3)c2cc1OC` has a remaining activity of 98%.
For `CCN(CC)C(=O)c1ccc(Nc2nc(OCC3CCCCC3)c3[nH]cnc3n2)cc1`, the remaining activity was 95.6%.

Series 2
SMILES: CN(C)c1ncnc(-c2ccc3nc(Nc4cc(CN5CCN(C(=O)CC(F)(F)F)CC5)ccn4)[nH]c3c2)c1Cl
IKBKE: Inhibitor of nuclear factor kappa-B kinase subunit epsilon (IKBKE, Homo sapiens, UniProt Q14164)
Sequence of UniProt Q14164 (whole entry, looked up): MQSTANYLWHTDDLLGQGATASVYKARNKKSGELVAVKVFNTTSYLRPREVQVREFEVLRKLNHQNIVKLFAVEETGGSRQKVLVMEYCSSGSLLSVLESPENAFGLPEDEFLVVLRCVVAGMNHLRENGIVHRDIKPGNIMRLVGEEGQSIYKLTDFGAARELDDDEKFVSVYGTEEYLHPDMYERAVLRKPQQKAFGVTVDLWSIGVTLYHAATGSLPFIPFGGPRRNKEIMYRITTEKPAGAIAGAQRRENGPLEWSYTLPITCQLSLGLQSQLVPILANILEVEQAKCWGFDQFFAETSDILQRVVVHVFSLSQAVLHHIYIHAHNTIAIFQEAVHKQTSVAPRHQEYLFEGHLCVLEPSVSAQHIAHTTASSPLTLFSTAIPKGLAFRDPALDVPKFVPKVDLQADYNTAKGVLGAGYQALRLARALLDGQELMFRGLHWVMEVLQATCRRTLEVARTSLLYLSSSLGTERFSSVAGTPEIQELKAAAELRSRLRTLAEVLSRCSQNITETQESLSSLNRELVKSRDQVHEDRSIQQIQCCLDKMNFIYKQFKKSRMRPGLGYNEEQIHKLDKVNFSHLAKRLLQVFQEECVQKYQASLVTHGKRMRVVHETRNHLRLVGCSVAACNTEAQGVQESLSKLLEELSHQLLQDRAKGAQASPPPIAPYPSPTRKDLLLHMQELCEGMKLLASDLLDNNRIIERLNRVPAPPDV
MAP2K5: Dual specificity mitogen-activated protein kinase kinase 5 (MAP2K5, Homo sapiens, UniProt Q13163)
Sequence of UniProt Q13163 (whole entry, looked up): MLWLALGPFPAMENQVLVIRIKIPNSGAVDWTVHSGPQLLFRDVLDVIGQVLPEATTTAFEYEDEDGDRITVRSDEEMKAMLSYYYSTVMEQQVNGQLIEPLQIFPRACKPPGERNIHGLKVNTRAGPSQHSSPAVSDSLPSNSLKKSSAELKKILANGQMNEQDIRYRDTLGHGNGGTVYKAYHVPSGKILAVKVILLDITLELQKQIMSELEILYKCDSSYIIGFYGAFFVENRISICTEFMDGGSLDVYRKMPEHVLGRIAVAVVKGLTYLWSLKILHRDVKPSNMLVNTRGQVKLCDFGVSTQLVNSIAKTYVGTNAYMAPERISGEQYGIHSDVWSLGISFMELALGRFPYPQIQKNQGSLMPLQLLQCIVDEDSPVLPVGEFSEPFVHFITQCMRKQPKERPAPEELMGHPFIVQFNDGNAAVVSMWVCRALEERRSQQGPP
MAP3K19: Mitogen-activated protein kinase kinase kinase 19 (MAP3K19, Homo sapiens, UniProt Q56UN5)
Sequence of UniProt Q56UN5 (whole entry, looked up): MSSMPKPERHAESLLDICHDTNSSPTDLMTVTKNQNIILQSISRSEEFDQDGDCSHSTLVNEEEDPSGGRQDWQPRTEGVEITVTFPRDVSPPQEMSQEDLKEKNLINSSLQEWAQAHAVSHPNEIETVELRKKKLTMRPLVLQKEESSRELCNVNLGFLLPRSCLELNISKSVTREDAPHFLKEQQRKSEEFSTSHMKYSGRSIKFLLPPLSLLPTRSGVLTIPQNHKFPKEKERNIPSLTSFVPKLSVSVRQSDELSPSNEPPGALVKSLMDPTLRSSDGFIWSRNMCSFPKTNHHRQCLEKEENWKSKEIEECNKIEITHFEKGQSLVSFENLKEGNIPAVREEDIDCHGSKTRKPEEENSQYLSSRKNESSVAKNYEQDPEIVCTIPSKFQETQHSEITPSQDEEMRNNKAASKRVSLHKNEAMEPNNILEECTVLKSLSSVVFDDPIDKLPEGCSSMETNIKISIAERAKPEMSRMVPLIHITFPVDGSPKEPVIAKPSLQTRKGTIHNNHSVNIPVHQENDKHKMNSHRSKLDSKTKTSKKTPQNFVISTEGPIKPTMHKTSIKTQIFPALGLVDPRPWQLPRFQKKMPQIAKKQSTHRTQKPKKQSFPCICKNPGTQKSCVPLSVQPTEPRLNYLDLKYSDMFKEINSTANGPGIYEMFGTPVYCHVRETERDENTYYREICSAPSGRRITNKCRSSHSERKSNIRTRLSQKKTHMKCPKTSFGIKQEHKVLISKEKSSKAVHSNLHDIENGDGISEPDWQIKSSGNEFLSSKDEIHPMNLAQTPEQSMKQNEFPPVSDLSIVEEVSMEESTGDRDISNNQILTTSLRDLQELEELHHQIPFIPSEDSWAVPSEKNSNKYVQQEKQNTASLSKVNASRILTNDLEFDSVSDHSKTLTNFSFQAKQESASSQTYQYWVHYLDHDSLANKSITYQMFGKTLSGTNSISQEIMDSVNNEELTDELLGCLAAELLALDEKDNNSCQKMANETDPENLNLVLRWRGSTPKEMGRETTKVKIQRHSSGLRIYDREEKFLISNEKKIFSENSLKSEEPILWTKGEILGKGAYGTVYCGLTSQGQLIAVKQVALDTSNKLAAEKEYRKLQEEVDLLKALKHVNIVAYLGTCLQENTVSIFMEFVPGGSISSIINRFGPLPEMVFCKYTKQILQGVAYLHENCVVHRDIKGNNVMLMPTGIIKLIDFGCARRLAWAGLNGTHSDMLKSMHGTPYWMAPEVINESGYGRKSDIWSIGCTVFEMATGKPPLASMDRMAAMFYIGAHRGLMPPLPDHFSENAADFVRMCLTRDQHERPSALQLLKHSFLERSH
It gave over 50 µM for EC50 (IKBKE; target engagement in cells, BRET).
It gave over 50 µM for EC50 (MAP2K5; target engagement in cells, BRET).
STK17A (Homo sapiens, UniProt Q9UEE5); target engagement in cells, BRET — EC50: 5.1 µM.
For MAP3K19; target engagement in cells, BRET: EC50 read over 50 µM.
The EC50 was over 50 µM (IKBKE; target engagement, NanoBRET; live cells).
MAP3K19; target engagement, NanoBRET; live cells — EC50: over 50 µM.
For MAP2K5; target engagement, NanoBRET; live cells: EC50 read over 50 µM.
For IKBKE; target engagement, NanoBRET: EC50 read over 50 µM.
FLT3 (Homo sapiens, UniProt P36888); target engagement, NanoBRET; live cells — EC50: over 50 µM.

Series 3 — method: phase 2a trial; species: idiopathic pulmonary fibrosis patients
SMILES: CC(C)n1cnc(-c2ccc(F)cc2)c1-c1ncc(C(=O)Nc2ccc(N3CCN(C)CC3)cc2)[nH]1
item: carotid intima-media thickening; dose not given, grade 4, all arms pooled — “adverse event incidence”: 0%.
The “adverse event incidence” was 0% (item: gingivitis; 60 mg once daily, grade 3).
It gave 0% for “adverse event incidence” (item: synovitis; 60 mg once daily, grade 2).
It gave 0% for “adverse event incidence” (item: carotid intima-media thickening; 60 mg once daily, grade 1).
item: drug eruption; dose not given, grade 5, all arms pooled — “adverse event incidence”: 0%.
It gave 0% for “adverse event incidence” (item: chronic gastritis; 60 mg once daily, grade 1).
It gave 0% for “adverse event incidence” (item: general and administration site disorders; 60 mg once daily, grade 3).
The “adverse event incidence” was 0% (item: allergic conjunctivitis; 30 mg once daily, grade 4).
item: weight decreased; dose not given, grade 4, all arms pooled — “adverse event incidence”: 0%.
item: immunoglobulins increased; 30 mg once daily, grade 3 — “adverse event incidence”: 0%.
The “adverse event incidence” was 0% (item: weight decreased; dose not given, grade 3, all arms pooled).
It gave 0% for “adverse event incidence” (item: ECG ST segment abnormal; dose not given, grade 2, all arms pooled).
item: immunoglobulins increased; 30 mg once daily, grade 2 — “adverse event incidence”: 0%.
For item: QRS axis abnormal; 60 mg once daily, grade 4: “adverse event incidence” read 0%.
The “adverse event incidence” was 0% (item: arthritis; dose not given, grade 2, all arms pooled).

Series 4 — cell line: HaCaT; concentration: 100 µM; time: 36 h
For `Cc1c(OCC(F)(F)F)ccnc1C[S+]([O-])c1nc2ccccc2[nH]1` (stereo not drawn), the viability was 87.6%.
With `C[C@H]1[C@H](OC(=O)CCC(=O)O)O[C@@H]2O[C@@]3(C)CC[C@H]4[C@H](C)CC[C@@H]1[C@@]24OO3` the viability was 61.4%.
The viability of `CC[C@H]1OC(=O)[C@H](C)[C@@H](O[C@H]2C[C@@](C)(OC)[C@@H](O)[C@H](C)O2)[C@H](C)[C@@H](O[C@@H]2O[C@H](C)C[C@H](N(C)C)[C@H]2O)[C@](C)(O)C[C@@H](C)C(=O)[C@H](C)[C@@H](O)[C@]1(C)O` is reported as 72.1%.
The viability of `NC(=O)c1ccccc1O` is reported as 84%.
`Cc1cn([C@H]2O[C@@H](CO)[C@H](O)[C@H]2F)c(=O)[nH]c1=O` has a viability of 98.7%.
The viability of `N#Cc1cc(-c2n[nH]c(-c3ccncc3)n2)ccn1` is reported as 89.5%.
The viability of `N#CC(c1ccc(Cl)cc1)c1c(Cl)cc(-n2ncc(=O)[nH]c2=O)cc1Cl` (stereo not drawn) is reported as 41.9%.
With `CC(C)NCC(O)COc1cccc2[nH]ccc12` (stereo not drawn) the viability was 91.6%.
The viability of `CC1(C)C[C@@H]1C(=O)N/C(=C\CCCCSC[C@H](N)C(=O)O)C(=O)O` is reported as 95.3%.
For `CC1=CC(=O)c2ccccc2C1=O`, the viability was 7.14%.
With `COc1cc(NS(=O)(=O)c2ccc(N)cc2)ncn1` the viability was 79.7%.

For quick reference, copied from above (series 1):
The remaining activity of `O=C(Nc1cccc(Nc2nccc(Nc3cccc(C(F)(F)F)c3)n2)c1)C1CC1` is reported as 101%.
`COc1cc2ncnc(Nc3ccc(O)c(Br)c3)c2cc1OC` has a remaining activity of 98%.
With `CCN(CC)CCNC(=O)c1c(C)[nH]c(/C=C2\C(=O)Nc3ccc(Cl)cc32)c1C` the remaining activity was 96.8%.
`Nc1cccc(-c2cc3c(Oc4cccc(O)c4)ncnc3[nH]2)c1` has a remaining activity of 97.8%.
For `O=C(NC(NC(=S)Nc1ccc(F)c([N+](=O)[O-])c1)C(Cl)(Cl)Cl)C(c1ccccc1)c1ccccc1` (stereo not drawn), the remaining activity was 96.5%.
`COc1cc2ncnc(Nc3cccc(Cl)c3)c2cc1OC` gave a remaining activity of 103%.
`CCOc1nc(NC(=O)Cc2cc(OC)ccc2OC)cc(N)c1C#N` has a remaining activity of 88.6%.
With `N#C/C(=C\c1ccc(O)c(O)c1)C(=O)NCc1ccccc1` the remaining activity was 86.3%.
`Cc1cc2ncc(-c3ccccc3)nc2cc1C` gave a remaining activity of 95.4%.
